Published values of several laboratories.
Lines come from different studies, so protocols differ.
CSF1R: Macrophage colony-stimulating factor 1 receptor (CSF1R, Homo sapiens, UniProt P07333)
CSF1R autoinhibited: Macrophage colony-stimulating factor 1 receptor, autoinhibited (CSF1R, Homo sapiens, UniProt P07333)

For `CC(=O)N1c2ccc(-c3ccc(CNC(=O)c4cn5cc(-c6cnc(N)nc6)nc(N6CCOCC6)c5n4)cc3)cc2CC[C@@H]1C`, the remaining binding was 90% (CSF1R; KINOMEscan; 10 µM).
`CN1CCN(Cc2ccc(NC(=O)c3cccc(C#Cc4cnc(N)c5ncccc45)c3)cc2C(F)(F)F)CC1` has a remaining binding of 0.4% (CSF1R; cell-free assay, competition with immobilised ligand; 50 nM).
With `CC(C)=CC1OC(C)(C)C2C=C3C(=O)C(Cl)=CC(O)C3C3C(O)C4OC4C(=O)C132` (centres unmarked) the remaining binding was 92% (CSF1R; cell-free assay, competition with immobilised ligand; 10 µM).
`C=CC(=O)N1CCCC(n2c(=O)c3ncccc3n(Cc3ccc(Oc4ccccc4)cc3)c2=O)C1` (centres unmarked) gave a remaining binding of 88% (CSF1R; cell-free assay, competition with immobilised ligand; 1 µM).
`COc1c(Cl)cccc1Nc1c(-c2ccncc2C#C[C@@]2(C)CCCN2C(=O)/C=C/CN(C)C)[nH]c2c1C(=O)NCC2` has a remaining binding of 97% (CSF1R; cell-free assay, competition with immobilised ligand; 3 µM).
With `CCN1CCN(Cc2ccc(C(=O)Nc3ccc(C)c(NCc4cnc5[nH]ccc5c4OC)c3)cc2C(F)(F)F)CC1` the remaining binding was 64% (CSF1R autoinhibited; binding, competition with immobilised ligand; 1 µM).
With `COc1ccc(NC(=O)Nc2ccc3c(c2)C(=O)N(C(C)CO)CC(C)C(CN(C)Cc2ccc4c(c2)OCO4)O3)cc1` (centres unmarked) the remaining binding was 100% (CSF1R; binding, competition with immobilised ligand; 10 µM).
The remaining binding of `COc1cc(Nc2nccc(-c3cnn4nc(OC)ccc34)n2)cc(C(F)(F)F)c1` is reported as 84% (CSF1R autoinhibited; binding, competition with immobilised ligand; 1 µM).
With `Nc1ncc2c(n1)-c1c([nH]c3ccc(C4=CCOCC4)cc13)CCC2` the remaining binding was 100% (CSF1R; binding, competition with immobilised ligand; 1 µM).
With `Cc1cnc2nc1Nc1cccc(c1)COC/C=C/COCc1cc(ccc1OCCN1CCOCC1)N2` the remaining binding was 46% (CSF1R autoinhibited; binding; 0.1 µM).
`CNS(=O)(=O)Nc1nccc(Cc2c(C)c3ccc(Oc4ncccc4F)cc3oc2=O)c1F` gave a remaining binding of 100% (CSF1R; cell-free assay, competition with immobilised ligand; 10 µM).
The remaining binding of `C=CC(=O)N1CCc2ccc(-n3c(=O)ccc4cnc5ccc(-c6cnn(C)c6)cc5c43)cc21` is reported as 85% (CSF1R autoinhibited; KINOMEscan; 1 µM; reference: DMSO control).
`CNC1C[S+]2CC[S+]3CC[S+](C1)[Ru-4]321([N]=C=S)[n]2c3ccc(OC)cc3c3c4c(c5cc(F)c[n+]1c5c32)C(=O)NC4=O` (centres unmarked) has a remaining binding of 99% (CSF1R autoinhibited; KinomeScan; 0.1 µM; reference: untreated).
With `CNC(=O)C1CCN(c2cc(C)c(F)cc2NC(=O)c2ccc(-c3cc(O)ccc3C)c(C)c2)CC1` the remaining binding was 65% (CSF1R; binding, competition with immobilised ligand; 1 µM).
